Measured values of several laboratories.
A part holds a random share of what one study measured. Positions count from the first letter of the parent shown.

Block 1
Target: CCNA1, cyclin fold, Cln2 fusion (human)
Method: yeast growth competition, sequencing
Matrix: yeast
Setting: strong parent motif
Reference: not given
Reading: higher = stronger binding
Quantity: normalised enrichment score
Starting sequence: viral docking peptide; YKVKRRLVFGADD; partner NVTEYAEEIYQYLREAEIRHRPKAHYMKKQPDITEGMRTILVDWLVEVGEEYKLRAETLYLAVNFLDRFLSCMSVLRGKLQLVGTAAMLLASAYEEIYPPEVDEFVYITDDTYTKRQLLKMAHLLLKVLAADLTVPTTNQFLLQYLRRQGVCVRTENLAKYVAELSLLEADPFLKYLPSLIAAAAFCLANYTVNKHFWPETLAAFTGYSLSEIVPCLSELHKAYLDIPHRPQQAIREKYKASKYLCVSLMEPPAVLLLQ
Substitution = R5C; result = 0.0417
Substitution = D12H; result = 0.989
Substitution = A11D; result = 1.49
Substitution = G10E; result = 1.44
Substitution = F9E; result = 0.132

Block 2
Target: HLA class I histocompatibility antigen, A alpha chain, allele A*25:01 (Homo sapiens, UniProt P04439)
Read-out: peptide-MHC binding
Molecule type: peptide
Concentration: concentration not given
Quantity: binding
Sequence = RTWFYRTEF; result = inactive
Sequence = LSDAIFDDL; result = inactive
Sequence = GRFQEALKK; result = inactive
Sequence = RTDNGGWAH; result = inactive
Sequence = FPDGKPFTL; result = inactive
Sequence = LELAEITAE; result = inactive
Sequence = RLDARLQVL; result = inactive
Sequence = ETLDVFGPI; result = active

Block 3
Target: Myc proto-oncogene protein, bHLH-zipper, MAX partner unstated (MYC, Homo sapiens, UniProt P01106, residues 368-449)
UniProt P01106, sequence (368-449, looked up): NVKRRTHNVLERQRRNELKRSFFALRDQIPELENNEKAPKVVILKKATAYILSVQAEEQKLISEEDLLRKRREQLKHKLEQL
Method: protein-binding microarray
Molecule type: double-stranded DNA, one strand shown
Matrix: in vitro
Concentration: not given
Setting: k-mer, scored over probes, only values ≥0.25
Reading: higher = stronger binding
Quantity: E-score
Sequence = CCGGCCAC; result = 0.266
Sequence = CTCATGGA; result = 0.347
Sequence = CGTGCACA; result = 0.315
Sequence = CCCCACGC; result = 0.414
Sequence = ATACCGCG; result = 0.295
Sequence = CAACGTGG; result = 0.442
Sequence = CGCATGCG; result = 0.469
Sequence = ACAGCATG; result = 0.433

Block 4
Target: UBE2A UBC core domain (UniProt P49459)
UniProt P49459, sequence (whole entry, looked up): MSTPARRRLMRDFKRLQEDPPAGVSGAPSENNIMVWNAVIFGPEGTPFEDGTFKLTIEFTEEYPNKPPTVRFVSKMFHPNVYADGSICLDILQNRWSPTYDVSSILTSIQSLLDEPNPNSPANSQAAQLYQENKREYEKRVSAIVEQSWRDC
Method: yeast two-hybrid
Matrix: yeast
Setting: mostly zero background
Reference: not given
Reading: higher = stronger interaction
Quantity: lacZ reporter activity
B1: RNF7 RING domain (UniProt Q9UBF6); chain AICRVQVMDACLRCQAENKQEDCVVVWGECNHSFHNCCMSLWVKQNNRCPLCQQDWVVQRIGK
B2: TRIM74 RING domain (UniProt Q86UV6); chain SLLELEDWLQCPICLEVFKESLMLQCGHSYCKGCLVSLSYHLDTKVRCPMCWQVVDGSSSLP
B3: ARIH1 RING domain (UniProt Q9Y4X5); chain NTRSSAQDMPCQICYLNYPNSYFTGLECGHKFCMQCWSEYLTTKIMEEGMGQTISCPAHGCDILVDDNTVM
B4: TRIM47 RING domain (UniProt Q96LD4); chain MDGSGPFSCPICLEPLREPVTLPCGHNFCLACLGALWPHRGASGAGGPGGAARCPLCQEPFPDGLQLR
B5: SHPRH RING domain (UniProt Q149N8); chain KTSGGVNPEPCPICARQLGKQWAVLTCGHCFCNECISIIIEQYSVGSHRSSIKCAICRQTTSHKEISY
B6: RNF32 RING domain (UniProt Q9H0A6); chain VQALRRETHECSICLAPLSAAGGQRVGAGRRSREMALLSCSHVFHHACLLALEEFSVGDRPPFHACPLCRSCYQKKILEC
B7: TRIM2 RING domain (UniProt Q9C040); chain VRQIDKQFLICSICLERYKNPKVLPCLHTFCERCLQNYIPAHSLTLSCPVCRQTSILPEKGV
B8: CBLL1 RING domain (UniProt Q75N03); chain GEKDDTPVHFCDKCGLPIKIYGRMIPCKHVFCYDCAILHEKKGDKMCPGCSDPVQRIEQCT
B9: TRIM34 RING domain (UniProt Q9BYJ4); chain ILLNVQEEVTCPICLELLTEPLSLDCGHSLCRACITVSNKEAVTSMGGKSSCPVCGISYSFEHLQA
Sequence = PLRRLQEEKLCKICMDRHIAVVFIPCGHLVTCKQCAEAVDRCPMCSAVIDFKQRVF (BIRC8 RING domain (UniProt Q96P09)); result = 0
Sequence = B1 (RNF7 RING domain); result = 0
Sequence = B2 (TRIM74 RING domain); result = 0
Sequence = B3 (ARIH1 RING domain); result = 0
Sequence = B4 (TRIM47 RING domain); result = 0
Sequence = MEEMEEELKCPVCGSFYREPIILPCSHNLCQACARNILVQTPESESPQSHRAAGSGVSDY (TRIM9 RING domain (UniProt Q9C026)); result = 0
Sequence = B5 (SHPRH RING domain); result = 0
Sequence = EIKDYKARLTCPCCNMRKKDAVLTKCFHVFCFECVKTRYDTRQRKCPKCNAAFGANDFHR (RNF20 RING domain (UniProt Q5VTR2)); result = 0
Sequence = EDVLSKDAGECAICLEELQQGDTIARLPCLCIYHKGCIDEWFEVNRSCPEHPSD (ZNRF2 RING domain (UniProt Q8NHG8)); result = 0
Sequence = B6 (RNF32 RING domain); result = 0
Sequence = B7 (TRIM2 RING domain); result = 0
Sequence = VPADASPDSKCPICLDRFDNVSYLDRCLHKFCFRCVQEWSKNKAECPLCKQPFDSIFHSV (TOPORS RING domain (UniProt Q9NS56)); result = 0
Sequence = B8 (CBLL1 RING domain); result = 0
Sequence = B9 (TRIM34 RING domain); result = 0
Sequence = GSEEEEIPFRCFICRQAFQNPVVTKCRHYFCESCALEHFRATPRCYICDQPTGGIFNPA (RNF113B RING domain (UniProt Q8IZP6)); result = 0

Some of these lines once more (block 4):
Sequence = B5 (SHPRH RING domain); result = 0
Sequence = EIKDYKARLTCPCCNMRKKDAVLTKCFHVFCFECVKTRYDTRQRKCPKCNAAFGANDFHR (RNF20 RING domain (UniProt Q5VTR2)); result = 0
